Measured values of several laboratories.
Each numbered part is a random draw from the data of one study; scales do not carry over between parts. Substitutions count along the parent as printed.

Study 1
Target: CCNB2, cyclin fold, Cln2 fusion (human)
Technique: yeast growth competition, sequencing
Medium: yeast
Setting: weak parent motif
Reference: not given
Direction: higher = stronger binding
Parent: DBF4B docking peptide (human); LGYLYLLLTQSLW; partner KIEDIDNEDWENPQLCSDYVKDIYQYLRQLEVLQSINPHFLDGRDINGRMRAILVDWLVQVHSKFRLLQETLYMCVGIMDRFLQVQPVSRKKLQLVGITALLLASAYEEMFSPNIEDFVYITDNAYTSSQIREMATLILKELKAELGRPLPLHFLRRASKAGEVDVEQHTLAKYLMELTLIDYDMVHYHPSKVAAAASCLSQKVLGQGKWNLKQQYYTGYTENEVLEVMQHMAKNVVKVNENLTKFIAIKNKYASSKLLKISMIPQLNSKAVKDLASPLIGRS
Variant | normalised enrichment score
LGYLYLALTQSLW [L7A] | -0.22
LGYLALLLTQSLW [Y5A] | 0.852
LGYLYLLLAQSLW [T9A] | 0.598
LGYAYLLLTQSLW [L4A] | 0.22
LGYLYALLTQSLW [L6A] | 0.16
LGYLYLLLTQSAW [L12A] | 0.0299

Study 2
Target: Hepatocyte nuclear factor 3-beta, forkhead domain (FOXA2, Homo sapiens, UniProt Q9Y261, residues 142-269)
Technique: protein-binding microarray
Molecule type: double-stranded DNA, one strand shown
Medium: in vitro
Concentration: not given
Setting: k-mer, scored over probes, only values ≥0.25
Direction: higher = stronger binding
Residues (chain): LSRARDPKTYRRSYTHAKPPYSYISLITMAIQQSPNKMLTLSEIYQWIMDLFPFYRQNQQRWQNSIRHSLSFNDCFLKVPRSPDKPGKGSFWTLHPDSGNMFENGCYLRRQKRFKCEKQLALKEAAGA
Sequence | E-score
CCTACACA | 0.27
ATTGATTG | 0.309
ATTGTACG | 0.255
CGAACAAA | 0.279
ACTGTTGA | 0.259
AATATGAC | 0.335
CACATTAA | 0.261
TAGTTTAA | 0.281

Study 3
Target: Ras GTPase-activating protein-binding protein 1, RRM domain (G3BP1, Homo sapiens, UniProt Q13283)
UniProt Q13283, sequence (whole entry, looked up): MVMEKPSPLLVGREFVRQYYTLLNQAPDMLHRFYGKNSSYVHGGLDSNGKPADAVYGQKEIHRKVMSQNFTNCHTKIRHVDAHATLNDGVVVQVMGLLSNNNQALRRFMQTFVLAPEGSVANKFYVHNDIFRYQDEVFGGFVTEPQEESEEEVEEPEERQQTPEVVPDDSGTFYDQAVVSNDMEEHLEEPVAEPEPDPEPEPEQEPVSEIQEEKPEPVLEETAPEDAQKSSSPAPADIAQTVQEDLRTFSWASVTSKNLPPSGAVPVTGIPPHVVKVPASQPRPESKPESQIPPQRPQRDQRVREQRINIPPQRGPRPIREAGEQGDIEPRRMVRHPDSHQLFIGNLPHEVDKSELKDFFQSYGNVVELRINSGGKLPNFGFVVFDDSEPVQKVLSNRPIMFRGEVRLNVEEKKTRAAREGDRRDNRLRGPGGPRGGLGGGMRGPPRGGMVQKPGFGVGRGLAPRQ
Technique: RNA Bind-n-Seq
Molecule type: RNA
Medium: in vitro
Concentration: 1 µM
Setting: whole 134-nt RNA, ends assumed
Added: 150 mM KCl
Reference: input library
Direction: higher = stronger binding
Constant ends, left off below: GGGAGUUCUACAGUCCGACGAUC … UGGAAUUCUCGGGUGUCAAGG
Sequence | log2 enrichment
ACCAUGCAGGUGGGCAUCUUUGGGAAGUGGAAAAAGGGGGGGAUAGGGAGGGGGGUAACACUUUGGGAACAGGUGGUCCCAGGUCGUUUC | -0.531
AAGUCCUGUGCUACACAUCGUAUGUACCGAAUCGGGAGGGUUUGGGUUUUUUUGGGAAAGUAUUAUGUUACGCCGUUCGGAUCUGCACUU | 0.387
GCAGGAAGUAAAAACAAAUGGAAAUGCUUCGGAGAGUGGCAGGGGUGGGGGUUGCUAAGGAAAGGGUGGGAUGGGAGUGGGUAAAGAGUU | 0.822
CUGUGCUACACAUCGUAUGUACCGAAUCGGGAAAAAAAGGAAAAAAAGGGGAAAAAAAGGGGAAAGUAUUAUGUUACGCCGUUCGGAUCU | 0.147
AGUCCUGUGCUACACAUCGUAUGUACCGAAUCGGGUUUUUGGGAAAGGGUUUUUGGGAAAGUAUUAUGUUACGCCGUUCGGAUCUGCACU | 0.396
AGUCCUGUGCUACACAUCGUAUGUACCGAAUCAAAUUUAAACCCCCAAAUUUUUAAAAAAGUAUUAUGUUACGCCGUUCGGAUCUGCACU | -0.105
CUCAAGUCCUGUGCUACACAUCGUAUGUACCGAAUCGGGGAAGGAAGGGGAAGGAAAGUAUUAUGUUACGCCGUUCGGAUCUGCACUUCC | -0.204
CACAGACAACACGCACCCACACAAAAACAGAGGGAAGGGGUUGGGAUGGGGACAGGGUGCACAGCAGGGCGGGGUAGGACCCCAGCCCCU | -0.112
UUCUUGCCAGAGACGAAGAAGCGCAAGAAACGCAAGUCAGAGGAUGGCACGCCAGCGGAGGAUGGCACACCUGCAGCCACCGGCGGGAGC | -0.403
UAACUUUAGAGGAGGAUCUGAUGGAUAUGGCAGUUGACGUGGAUUUGGGGAUGGCUAUAAUGGGUAUGGAGGAGGACCUGGAGGUGGCAA | -0.618
AGUCCUGUGCUACACAUCGUAUGUACCGAAUCGGAAAAAGGUUUUUUUGGUUUUUGGAAAGUAUUAUGUUACGCCGUUCGGAUCUGCACU | -0.487

Other studies, line by line
Molecule | target | assay | test system | setting | how to read | endpoint | value
PhoQ, residues 284 288 289 292 302 303 SMMNNA | PhoP, residues 12 14 15 18 19 SPWRL (Escherichia coli, UniProt P23836) | Sort-seq, measured: YFP reporter | E. coli | PhoQ-PhoP variant library, added: 10 µM Mg2+ | reference: high Mg2+ state, higher = stronger signaling | fold induction | 0.857

For quick reference, copied from above (other studies, line by line):
Molecule | target | assay | test system | setting | how to read | endpoint | value
PhoQ, residues 284 288 289 292 302 303 SMMNNA | PhoP, residues 12 14 15 18 19 SPWRL (Escherichia coli, UniProt P23836) | Sort-seq, measured: YFP reporter | E. coli | PhoQ-PhoP variant library, added: 10 µM Mg2+ | reference: high Mg2+ state, higher = stronger signaling | fold induction | 0.857
